Assay results gathered from unrelated publications.
Protocols differ between the studies behind these lines. Several values in a cell are separate wells, animals, samples, runs or records. ± marks the error that the study gave.
Sequence of UniProt P10398 (whole entry, looked up): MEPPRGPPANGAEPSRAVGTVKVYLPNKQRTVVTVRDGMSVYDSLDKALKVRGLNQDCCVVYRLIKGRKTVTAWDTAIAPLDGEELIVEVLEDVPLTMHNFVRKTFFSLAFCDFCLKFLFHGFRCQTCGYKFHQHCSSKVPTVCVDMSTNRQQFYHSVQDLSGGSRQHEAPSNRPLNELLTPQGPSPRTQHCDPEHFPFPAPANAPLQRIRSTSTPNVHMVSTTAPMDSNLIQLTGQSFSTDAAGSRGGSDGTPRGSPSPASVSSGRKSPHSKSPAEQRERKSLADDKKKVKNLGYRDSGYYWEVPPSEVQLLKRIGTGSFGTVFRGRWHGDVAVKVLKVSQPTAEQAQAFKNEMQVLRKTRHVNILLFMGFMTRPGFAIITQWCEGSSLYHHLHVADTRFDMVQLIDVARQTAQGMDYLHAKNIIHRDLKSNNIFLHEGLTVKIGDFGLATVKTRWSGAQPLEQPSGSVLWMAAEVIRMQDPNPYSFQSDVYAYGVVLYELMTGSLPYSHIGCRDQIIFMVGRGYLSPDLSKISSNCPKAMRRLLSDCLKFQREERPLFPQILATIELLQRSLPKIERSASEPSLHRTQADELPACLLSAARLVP

SMILES	target or system	assay	test system	setting	scale	endpoint	result
CN(C)CCCNC(=O)[C@@H]1NC(=O)[C@@H]2Cc3ccc(cc3)Oc3cc4cc(c3O)-c3ccc5c(c[nH]c5c3)C[C@@H](NC(=O)C(NC(=O)CCCCCN)c3ccc(O)cc3)C(=O)N[C@H](c3ccc(O)cc3)C(=O)N[C@H]4C(=O)N[C@@H](C(=O)N2C)c2ccc(cc2)Oc2cc1ccc2O (stereo partly shown)	human red blood cells			256 µg/mL, 1 h, 37 °C, 1% DMSO		hemolysis	0%
c1ccc(Nc2ncnc3ccc(-c4cccc(N5CCOCC5)c4)cc23)cc1	NIH 3T3	PrestoBlue		96 h		TC50	8.4 µM
CNC(=O)C[C@H](Cc1ccccc1)NC(=O)[C@@H](Cc1ccc(Cl)cc1Cl)NC(=O)[C@H](N)Cc1ccccc1C#N	Huh-7-ACE2	CellTiter-Glo		0.0977 µM, 48 h, unit not given	reference: DMSO	viability	1.07 and 1 and 0.961
Cc1ccc2[nH]c3c(c2c1)CCCC3NCc1ccccc1 (stereo not shown)	A549			50 µM, 23 h		non-viable cells	4.4 ± 6.3%
CC[C@H](C)[C@H](NC(=O)[C@H](CO)NC(=O)[C@H](Cc1ccc(O)cc1)NC(=O)[C@H](Cc1ccc(O)cc1)NC(=O)[C@H](CC(N)=O)NC(=O)CNC(=O)[C@H](CO)NC(=O)[C@H](Cc1ccc(O)cc1)NC(=O)[C@H](CO)NC(=O)[C@H](CO)NC(=O)[C@H](CC(N)=O)NC(=O)COCCOCCNC(=O)CN1CCN(CC(=O)O)CCN(CC(=O)O)CCN(CC(=O)O)CC1)C(=O)N[C@@H](CC(C)C)C(N)=O [copper-64 labelled]		dynamic PET	tamoxifen-induced PDAC mouse model, pancreas	1.1 min, CLDN4-expressing tumours		maximum pancreas uptake	25.6 %IA/cc
CNC(=O)CC1CN(C(=O)c2ccc(C(F)(F)F)cn2)CCN1C(=O)c1cccnn1 (stereo not shown)	Huh-7-ACE2	CellTiter-Glo		12.5 µM, 48 h, unit not given	reference: DMSO	viability	1.06 and 0.99 and 0.813
CS(C)(=O)=Nc1ccc(-c2ccc(-c3nc4cc(O[C@@H]5CO[C@H]6[C@@H]5OC[C@H]6O)[nH]c4cc3F)cc2)cc1	Serine/threonine-protein kinase A-Raf (ARAF, Homo sapiens, UniProt P10398)	enzyme activity, inhibitor		10 µM		inhibition	21%
N=C(N)NCCC[C@H](NC(=O)[C@H](CCCNC(=N)N)NC(=O)[C@H](CCCNC(=N)N)NC(=O)[C@H](CCC(N)=O)NC(=O)[C@H](CCCNC(=N)N)NC(=O)[C@H](CCCNC(=N)N)NC(=O)[C@H](CCCCN)NC(=O)[C@H](CCCCN)NC(=O)[C@H](CCCNC(=N)N)NC(=O)CNC(=O)[C@H](Cc1ccc(O)cc1)NC(=O)[C@H](Cc1ccccc1)NC(=O)[C@H](Cc1ccccc1)NC(=O)[C@H](Cc1ccccc1)NC(=O)Cc1ccc2ccccc2c1)C(=O)O	RAW264.7	FITC-labelled peptide		concentration not given, with: chlorpromazine 6 µg/mL, 1 h pretreatment	reference: no chlorpromazine	cell internalization	decreased
NC(=O)N/N=C/c1ccc(OCc2ccccc2)cc1	IMR-32	MTT		100 µg/mL, 24 h	reference: untreated control	viability	62.3%
COc1ccccc1-c1n[nH]c2nc(NC3CCN(C(=O)Cc4ccc(F)cc4F)CC3)ncc12		bead binding, competition bead pull-down, measured: LMJF.36.0990	Leishmania donovani axenic amastigote extract	10 µM	reference: vehicle	relative abundance	1.38
CC(C)C[C@@H]1NC(=O)[C@H](C(C)C)NC(=O)[C@]2(C)CCCN2C(=O)[C@H](C(C)C)NC(=O)[C@H](Cc2ccccc2)NC(=O)CSCCNC(=O)[C@H](Cc2ccccc2)N(C)C(=O)[C@H](CC(C)C)NC(=O)[C@H](CCC2CCCCC2)NC1=O	LLC-PK1		Caco-2			Papp A→B	0.01 ×10⁻⁶ cm/s
CC(C)(C)C(=O)OCOP(=O)(OCOC(=O)C(C)(C)C)C1CCCN(O)C1=O (stereo not shown)	LOX IMVI					Log10LC50	> -4 log M
CNC(=O)C[C@H](Cc1ccc(F)cc1)NC(=O)[C@@H](Cc1ccc(Cl)cc1Cl)NC(=O)[C@H](N)Cc1ccccc1C#N	Huh-7-ACE2	CellTiter-Glo		0.781 µM, 48 h, unit not given	reference: DMSO	viability	0.964 and 0.996 and 1.06
CC(=O)NCC(=O)N[C@@H](CCCNC(=N)N)C(=O)N[C@@H](CCCCN)C(=O)N[C@@H](CCCCN)C(=O)N[C@@H](CCCNC(=N)N)C(=O)N[C@@H](CCCNC(=N)N)C(=O)N[C@@H](CCC(N)=O)C(=O)N[C@@H](CCCNC(=N)N)C(=O)N[C@@H](CCCNC(=N)N)C(=O)N[C@@H](CCCNC(=N)N)C(=O)N1CCC[C@H]1C(=O)N[C@@H](CCC(N)=O)C(N)=O	HEK293T cells	LC-MS	nuclear fraction	20 µM, 24 h		peptide concentration	177 pmol/mg protein and 132 pmol/mg protein and 203 pmol/mg protein
O=C1NC2(CC2)COc2ncc(F)cc2[C@H]2COCCN2c2ccn3ncc1c3n2			Sprague-Dawley rat, male, testes	oral, 5 mg/kg/day, 4 weeks, end of treatment		organ-to-brain weight ratio	150 ± 6.91%
CCOc1ccc(CN2CC[C@H]2C(=O)NC)cc1-c1cccc(C(=O)NC[C@@H]2COC(C)(C)O2)c1	Huh-7-ACE2	CellTiter-Glo		0.000381 µM, 48 h, unit not given	reference: DMSO	viability	1.03 and 0.961 and 0.998
Cc1cc(-c2ccc3ccccc3c2)nnc1NCCN1CCN(C)CC1	Caco-2			5 µM, 0.5 h, with: valspodar 1.0 µM		Papp B-A	16.3 ×10⁻⁶ cm/s
Nc1nc2ccc(Oc3ccc4nc(N)sc4c3)cc2s1	A549	XTT		250 µM, 20 h, 10% FBS		cytotoxicity	30%
O=C1NC(=O)c2c1c1cc(F)c[n+]3c1c1c2c2cc(O)ccc2[n]1[Ru-4]312([N]=C=S)[S+]3CC[S+]1CC[S+]2CC3 (stereo not shown)	Serine/threonine-protein kinase mTOR, with FKBP12 (MTOR, Homo sapiens, UniProt P42345)	enzyme activity		100 nM, human enzyme, with: 10 µM ATP	reference: untreated	remaining activity	121%
